Assay results gathered from unrelated publications.
Each numbered part is a random draw from the data of one study; scales do not carry over between parts. Substitutions count along the parent as printed.
Sequence of UniProt O15294 (whole entry, looked up): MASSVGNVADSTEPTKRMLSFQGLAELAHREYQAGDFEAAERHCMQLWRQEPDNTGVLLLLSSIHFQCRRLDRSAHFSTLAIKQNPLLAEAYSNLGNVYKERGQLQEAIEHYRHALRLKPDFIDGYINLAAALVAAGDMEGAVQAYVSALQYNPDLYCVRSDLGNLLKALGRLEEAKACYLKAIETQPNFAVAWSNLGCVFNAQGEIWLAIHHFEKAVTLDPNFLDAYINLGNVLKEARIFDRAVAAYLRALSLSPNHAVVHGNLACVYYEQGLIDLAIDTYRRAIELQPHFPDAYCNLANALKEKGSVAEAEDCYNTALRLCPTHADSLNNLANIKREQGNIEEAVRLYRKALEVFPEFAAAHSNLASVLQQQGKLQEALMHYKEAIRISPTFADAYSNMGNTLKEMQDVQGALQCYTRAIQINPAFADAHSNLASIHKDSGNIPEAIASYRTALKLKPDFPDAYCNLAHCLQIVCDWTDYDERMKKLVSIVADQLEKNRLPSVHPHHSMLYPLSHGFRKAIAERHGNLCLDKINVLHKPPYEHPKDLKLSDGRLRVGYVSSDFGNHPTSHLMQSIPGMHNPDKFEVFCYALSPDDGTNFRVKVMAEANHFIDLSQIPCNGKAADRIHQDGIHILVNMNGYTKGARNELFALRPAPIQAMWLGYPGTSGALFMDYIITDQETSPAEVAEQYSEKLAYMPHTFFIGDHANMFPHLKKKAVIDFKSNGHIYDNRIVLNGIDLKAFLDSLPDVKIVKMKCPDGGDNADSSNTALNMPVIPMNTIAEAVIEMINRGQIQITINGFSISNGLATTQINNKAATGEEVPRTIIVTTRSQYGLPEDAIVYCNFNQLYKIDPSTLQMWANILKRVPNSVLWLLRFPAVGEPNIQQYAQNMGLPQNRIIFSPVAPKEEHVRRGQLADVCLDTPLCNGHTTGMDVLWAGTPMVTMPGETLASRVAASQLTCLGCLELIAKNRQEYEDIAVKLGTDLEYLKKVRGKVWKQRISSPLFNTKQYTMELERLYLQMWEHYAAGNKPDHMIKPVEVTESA

Sample 1
Target: FOSL1, bZIP domain (human)
Technique: DHFR protein complementation
Medium: yeast
Setting: single substitutions, most at no-binding floor
Baseline: wild-type JUN-FOS pair
Reading: higher = stronger binding
Starting sequence: JUN, bZIP domain (human); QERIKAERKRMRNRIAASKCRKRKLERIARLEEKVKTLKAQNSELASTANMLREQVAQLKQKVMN; partner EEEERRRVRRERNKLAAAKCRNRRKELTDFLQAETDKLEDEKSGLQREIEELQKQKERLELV
| Change | binding fitness [natural log] |
| --- | --- |
| V56K | -1.41 |
| A49L | -0.432 |
| K39A | -0.866 |
| R30V | -0.119 |
| K36Y | -0.662 |
| K36I | -0.575 |
| R53V | -1.26 |
| K36T | -0.643 |

Sample 2
Target: ATP-dependent RNA helicase DDX3X, helicase core (DDX3X, Homo sapiens, UniProt O00571, residues 132-607)
Sequence of UniProt O00571 (132-607, looked up): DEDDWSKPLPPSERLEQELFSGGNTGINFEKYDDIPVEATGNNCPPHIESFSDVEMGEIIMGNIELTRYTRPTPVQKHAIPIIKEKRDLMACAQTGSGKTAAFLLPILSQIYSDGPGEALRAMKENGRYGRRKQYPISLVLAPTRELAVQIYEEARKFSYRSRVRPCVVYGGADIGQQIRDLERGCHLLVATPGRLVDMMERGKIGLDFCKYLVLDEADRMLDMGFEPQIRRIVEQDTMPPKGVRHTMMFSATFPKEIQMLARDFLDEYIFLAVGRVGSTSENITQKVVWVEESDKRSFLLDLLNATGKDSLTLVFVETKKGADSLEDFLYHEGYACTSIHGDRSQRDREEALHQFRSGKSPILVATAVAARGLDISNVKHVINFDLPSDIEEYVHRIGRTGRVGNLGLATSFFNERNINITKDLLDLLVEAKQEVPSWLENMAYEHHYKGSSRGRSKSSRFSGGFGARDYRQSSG
Technique: RNA Bind-n-Seq
Form: RNA
Medium: in vitro
Concentration: not given
Setting: 4-mer, random 30-nt RNA, single round
With: RocA, ADP, phosphate
Baseline: input library
Reading: higher = stronger binding
| Sequence | 4-mer enrichment [fold] |
| --- | --- |
| ACUU | 0.667 |
| UUAU | 0.963 |
| GGGC | 1.02 |
| AGUU | 1.36 |
| AGAG | 1.86 |
| GAGC | 1.61 |
| GCGA | 1.12 |
| UGAU | 0.893 |

Sample 3
Target: Prothrombin, mature alpha-thrombin (F2, Homo sapiens, UniProt P00734)
Technique: aptamer microarray, sandwich
Form: DNA with 2'F-ANA
Medium: in vitro
Concentration: 200 nM
Setting: whole 15-mer aptamer, many near background
With: Cy3 exosite-II aptamer, 400 nM
Reading: higher = stronger binding
Sequence: GGTTGGTGTGGTTGG
| Modification | mean fluorescence intensity |
| --- | --- |
| 2'F-ANA at 3 5 6 7 9 10 11 12 14 15 | 50.5 a.u. |
| 2'F-ANA at 2 3 4 6 11 13 14 15 | 192 a.u. |
| 2'F-ANA at 1 2 4 6 7 8 9 10 13 | 47 a.u. |
| 2'F-ANA at 2 4 5 6 8 10 11 12 13 14 15 | 74.7 a.u. |
| 2'F-ANA at 2 3 4 8 11 12 14 | 329 a.u. |
| 2'F-ANA at 1 4 5 6 7 8 10 11 15 | 49.5 a.u. |
| 2'F-ANA at 3 6 8 9 12 | 1040 a.u. |
| 2'F-ANA at 1 2 3 6 9 10 11 13 15 | 64.3 a.u. |

Other studies, line by line
| Sequence | target | test | test system | setting | how to read | endpoint | value |
| --- | --- | --- | --- | --- | --- | --- | --- |
| THWSHYDTEHVDYTH | UDP-N-acetylglucosamine--peptide N-acetylglucosaminyltransferase 110 kDa subunit (OGT, Homo sapiens, UniProt O15294) | binding, phage display NGS | peptide | concentration not given, panning round 2 | baseline: input library | enrichment fold change | 3.19 |

Excerpt of the above (sample 2):
| Sequence | 4-mer enrichment [fold] |
| --- | --- |
| ACUU | 0.667 |
| UUAU | 0.963 |
| GGGC | 1.02 |
| AGUU | 1.36 |
